Results from different studies.
Every numbered part comes from another study and shows a few of its results, in no order. Positions count from the first letter of the parent shown.

Sample 1
Target: RNA binding protein fox-1 homolog 2, RRM domain, GST-SBP tag (RBFOX2, Homo sapiens, UniProt O43251-10, residues 100-194)
Technique: RNA Bind-n-Seq
Form: RNA
Sample: in vitro
Concentration: 365 nM
Notes: natural RNA segment, single round, ends assumed
Reference: no-protein control
Direction: higher = stronger binding
All sequences stand within: GGGAGUUCUACAGUCCGACGAUC … UGGAAUUCUCGGGUGCCAA
Residues (chain): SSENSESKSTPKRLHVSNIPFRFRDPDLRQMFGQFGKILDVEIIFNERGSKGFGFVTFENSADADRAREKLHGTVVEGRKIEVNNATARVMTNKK
| Sequence | RBNS enrichment (R) |
| --- | --- |
| AAGUUUUAAGACCCCUGAAACAGCUAAAACAGGUUUCCAAAGUGUAAUCACUGGAUUUCAAAACCAUGUUUUAGCCCUUCAUUAAUGAAGCCUGUUGUACAGAUUUAGAG | 0.299 |
| UGAAACUUGGAGGCUUACAGGUAUAGACAGCUUUCAGCUACAGCACAUUCUAAUUUUUUAUUUUGUUUAGUUCUUUUGUAUUCACUUCUGGUCUCUUUAAGACUGUUUUA | 0.403 |
| UCUACCUAGUCUGCUGGGCUGAUAGUGAAGCACCGAGGUUGAUGGACUUACAUUCCCAGUGUGCCUGCCAGCUGCAAUGAGGACUCUAAACUCAAGUAGAACAAAUCCCU | 0.609 |
| UAGUUUGAUUCUGGUUUCCCUCCUACAGUGUGUCCUCCGUCUCUGUGCAGCUCCGUCAUUACCAUAGGGGACUUGGUUUUAGACUCUGAUGAGGAAGAAAAUGGCCAGGG | 0.294 |
| ACUCACUUUGGGCCAGAGAGAGGUUACCUCACAGUGUGCUUCUGACGUCACAUUUCUCGGCCUCCGACAUUAUGACAUUCUGCAUCCUGGUGCCUGAAGGAAACUCUGGG | 1.87 |
| AGGGUAUAACACAUGCUCCGAGGUGGGUGUGUCUCUGACCAUCUCAAGCACCCUAUCUUGUGUCCCUCACAAACAAGCUCUUGUCACUUCUUACCGAGUCCAUAGCUUCA | 0.47 |
| UUUUCUCAUCUUAAUCUCUCCAUAAUUUCCCAUUUAAAGGUUUACAAAUAUGAGUGUGUGGAUGCUUUAAUUCAUUUAACCUCACUCCUCAAAGGUAACAUGCAACUUAG | 0.511 |
| AGGGCUUUCUUGGCUUUGGCGAAGGUCAGUGUACAGACAUUCCAUGGUACCAGAGUGCUCAGAAACUCAAGAUAGGAUAUGCCUCACCCUCAGCUACUCCUUGUUUUAAA | 0.301 |
| UGGCCCAUCUGCUGCCCACCAAGUCCCUUUCCAGCCACUGUGUGCUGGGGGCUUUCGGGGGCAGUUGCCCACCUCCUCAGGGCAGCUCUUUCUGGCCUUUUGGGGGGCAG | 0.412 |
| UCCUUCCUUGCCCCCCUCUCUUUCUUCCCUCUUUCCCCUCCAGACAUUCUAGUUUGUGGAGGGUUAUUUAAAAAAACAAAAAAGGAAGAUGGUCAAGUUUGUAAAAUAUU | 0.536 |
| GAGGGAGGUCUUAGGAUGUUGUAUGCUGUGCUGAGUGGGUGCCAGUUUGGCGUGAUGUCACGUGUGGCCAGACUGGCGACCGUACACUAGGUUUUUGAUCUUGCACUUUG | 0.788 |
| AGAACCAAUCUAAAAUACUAAAAAGGCAGAAACUUUUAAAAUUAGAAAUUGGAUAAUUUUUAAGAAUCUUUAGAGAAAACAUUGGUUUAUCAUAGUCUUUUUCUUUCAUU | 1.09 |

Sample 2
Target: Ras GTPase-activating protein-binding protein 1, full length (G3BP1, Homo sapiens, UniProt Q13283)
Sequence of UniProt Q13283 (whole entry, looked up): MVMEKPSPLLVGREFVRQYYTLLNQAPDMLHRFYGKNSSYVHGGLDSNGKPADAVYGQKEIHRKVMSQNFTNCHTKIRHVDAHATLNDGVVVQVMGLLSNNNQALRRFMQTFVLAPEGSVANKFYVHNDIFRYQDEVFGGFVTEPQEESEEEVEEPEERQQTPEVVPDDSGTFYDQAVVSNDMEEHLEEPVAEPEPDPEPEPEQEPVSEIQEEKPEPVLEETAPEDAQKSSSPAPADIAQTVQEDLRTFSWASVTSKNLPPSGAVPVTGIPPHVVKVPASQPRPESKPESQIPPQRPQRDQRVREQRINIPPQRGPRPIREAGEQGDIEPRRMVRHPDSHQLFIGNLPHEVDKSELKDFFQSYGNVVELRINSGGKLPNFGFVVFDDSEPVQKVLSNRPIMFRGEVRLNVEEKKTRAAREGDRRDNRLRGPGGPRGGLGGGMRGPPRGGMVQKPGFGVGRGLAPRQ
Technique: RNA Bind-n-Seq
Form: RNA
Sample: in vitro
Concentration: 200 nM
Notes: whole 134-nt RNA, ends assumed
Added: 150 mM LiCl
Reference: input library
Direction: higher = stronger binding
All molecules: 7-deaza-guanosine replaces G
All sequences stand within: GGGAGUUCUACAGUCCGACGAUC … UGGAAUUCUCGGGUGUCAAGG
| Sequence | log2 enrichment |
| --- | --- |
| CAAGUCCUGUGCUACACAUCGUAUGUACCGAAUCGGGGCCCGGGGCCCGGCCCGGAAAGUAUUAUGUUACGCCGUUCGGAUCUGCACUUC | -1.38 |
| UCAAGUCCUGUGCUACACAUCGUAUGUACCGAAUCGGGUUGGGGUUGGUUGGGGAAAGUAUUAUGUUACGCCGUUCGGAUCUGCACUUCC | 0.272 |
| CCCAUCAUGUUCAGAGGUGAGGUCCGUCUGAAUGUCGAAGAGAAGAAGACUCGAGCUGCCAGGGAAGGCGACCGACGAGAUAAUCGCCUU | -2.26 |
| ACCAUGCAGGUGGGCAUCUUUGGGAAGUGGGGCAAGGGGGGGAUAGGGAGGGGGGUAACACUUUGGGAACAGGUGGUCCCAGAAAGUUUC | -0.00707 |
| UGUGCUACACAUCGUAUGUACCGAAUCGGGGAAAAAAAGGGGAAAAAAAGGGGUUUUUGGGGAAAGUAUUAUGUUACGCCGUUCGGAUCU | -0.235 |
| CUCAAGUCCUGUGCUACACAUCGUAUGUACCGAAUCGGUUGGGUUGGGGUUGGGAAAGUAUUAUGUUACGCCGUUCGGAUCUGCACUUCC | 0.259 |
| CAAGUCCUGUGCUACACAUCGUAUGUACCGAAUCGGGCCCGGGCCCGGGGCCCGGAAAGUAUUAUGUUACGCCGUUCGGAUCUGCACUUC | -0.973 |
| CAAGUCCUGUGCUACACAUCGUAUGUACCGAAUCGGGUUUGGGUGGGUUUUUGGGAAAGUAUUAUGUUACGCCGUUCGGAUCUGCACUUC | 0.763 |
| CCACCAUGACCCCUGACGGUCUGGCUGUGACCCCAACGCCGGUGCCCGUGGUCGGGAGCCAGAUGACCAGACAAGCCCGGCGCCUCUACG | 0.851 |
| GUCCUGUGCUACACAUCGUAUGUACCGAAUCGGGAAAAAAGGAAAAAAGGAAAAAAGGGAAAGUAUUAUGUUACGCCGUUCGGAUCUGCA | -0.237 |
| GCAGGAAGUACAAACAAAUGGAAAUGCUUCGGAUAGUGGCAGGGGUGGGGGUUGCUAAGGAAAGGGUGGGAUGGGAGUGGGUAAAGAGUU | 0.428 |

Sample 3
Target: ABI1, truncated, D143A, DHFR fusion (Arabidopsis thaliana)
Technique: DHFR PCA, deep sequencing
Sample: yeast
Notes: methotrexate growth selection, single substitutions
Added: (+)-ABA 1.4 µM
Reference: wild-type fitted maximum
Direction: higher = stronger binding
Starting sequence: PYL1, truncated, DHFR fusion (Arabidopsis thaliana); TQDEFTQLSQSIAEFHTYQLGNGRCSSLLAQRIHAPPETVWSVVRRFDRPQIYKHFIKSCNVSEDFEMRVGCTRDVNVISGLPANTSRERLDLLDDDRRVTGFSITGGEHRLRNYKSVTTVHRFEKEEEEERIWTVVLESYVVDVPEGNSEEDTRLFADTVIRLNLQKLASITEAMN
| Substitution | relative binding score [%] |
| --- | --- |
| V142A | 41 |
| S140A | 13.5 |
| E139P | 16.5 |
| I57F | -0.222 |
| D3C | 42.4 |
| A84L | 10 |
| M176N | 25.9 |
| N85G | 43.6 |
| N149H | 22.1 |
| L93D | -0.0425 |
| I33N | -7.14 |
| K126M | 69.8 |
| S104M | -2.56 |
| K58Y | 11.2 |
| T39V | 70.1 |
| C60K | -17.5 |
| R45T | 2.85 |
| F124E | 31 |
| A170S | 11.1 |

Sample 4
Target: UBE2V2 UBC core domain (UniProt Q15819)
Technique: yeast two-hybrid
Sample: yeast
Notes: mostly zero background
Reference: not given
Direction: higher = stronger interaction
B1: TRIM3 RING domain (UniProt O75382); chain VQPMDKQFLVCSICLDRYQCPKVLPCLHTFCERCLQNYIPAQSLTLSCPVCRQTSILPEQGV
B2: RNF149 RING domain (UniProt Q8NC42); chain EKGIDVDAENCAVCIENFKVKDIIRILPCKHIFHRICIDPWLLDHRTCPMCKLDVIKALGYW
B3: RNF4 RING domain (UniProt P78317); chain TGLRPSGTVSCPICMDGYSEIVQNGRLIVSTECGHVFCSQCLRDSLKNANTCPTCRKKINHKRYHP
B4: RNF112 RING domain (UniProt Q9ULX5); chain QPMAPRELPTCSICLERLRDPISLDCGHDFCIRCFSTHRLPGCEPPCCPECRKICKQKRGLR
B5: TRIM55 RING domain (UniProt Q9BYV6); chain TMDNLEKQLICPICLEMFTKPVVILPCQHNLCRKCASDIFQASNPYLPTRGGTTMASGGRFRCPSCRHEVVLDRHG
B6: NSMCE1 RING domain (UniProt Q8WV22); chain RETYPDAVKICNICHSLLIQGQSCETCGIRMHLPCVAKYFQSNAEPRCPHCNDYWPHEIPKV
B7: RNF175 RING domain (UniProt Q8N4F7); chain LPTRSLSDNICAVCGQKIIVELDEEGLIENTYQLSCNHVFHEFCIRGWCIVGKKQTCPYCKEKVDLKRMIS
B8: MSL2 RING domain (UniProt Q9HCI7); chain LLPYFRQSLSCCVCGHLLQDPIAPTNSTCQHYVCKTCKGKKMMMKPSCSWCKDYEQFEENKQ
B9: PHF7 RING domain (UniProt Q9BWX1); chain IQHGHVGEESCILCCEDLSQQSVENIQSPCCSQAIYHRKCIQKYAHTSAKHFFKCPQCNNRKEFPQEML
Residues (chain): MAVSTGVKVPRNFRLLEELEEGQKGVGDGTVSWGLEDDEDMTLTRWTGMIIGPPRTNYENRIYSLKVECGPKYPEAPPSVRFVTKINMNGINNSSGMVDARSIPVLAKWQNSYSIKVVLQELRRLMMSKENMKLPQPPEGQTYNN
| Molecule | lacZ reporter activity |
| --- | --- |
| B1 (TRIM3 RING domain) | 0 |
| B2 (RNF149 RING domain) | 0 |
| B3 (RNF4 RING domain) | 0 |
| B4 (RNF112 RING domain) | 0 |
| B5 (TRIM55 RING domain) | 0 |
| B6 (NSMCE1 RING domain) | 0 |
| B7 (RNF175 RING domain) | 0 |
| B8 (MSL2 RING domain) | 0 |
| B9 (PHF7 RING domain) | 0 |

Sample 5
Target: CCNF, cyclin fold, Cln2 fusion (human)
Technique: yeast growth competition, sequencing
Sample: yeast
Notes: strong parent motif
Reference: not given
Direction: higher = stronger binding
Starting sequence: ANKRD17 docking peptide (human); PSVRRQLFVTVVK
| Substitution | normalised enrichment score |
| --- | --- |
| L7A | 1.8 |
| T10A | 8.87 |
| V3A | 8.47 |
| R4A | 6.63 |
| F8L | 2.44 |
| Q6A | 8.73 |
| P1A | 8.02 |

Sample 6
Target: NFE2L1, bZIP domain (human)
Technique: DHFR protein complementation
Sample: yeast
Notes: single substitutions, most at no-binding floor
Reference: wild-type JUN-FOS pair
Direction: higher = stronger binding
Starting sequence: JUN, bZIP domain (human); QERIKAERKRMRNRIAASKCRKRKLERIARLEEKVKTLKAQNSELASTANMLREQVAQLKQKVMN; partner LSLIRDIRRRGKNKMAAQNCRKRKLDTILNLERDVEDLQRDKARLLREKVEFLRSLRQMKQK
| Substitution | binding fitness |
| --- | --- |
| V56A | -1.51 natural log |
| L38S | -1.51 natural log |
| L38F | -1.46 natural log |
| I28N | -1.37 natural log |
| E54G | -1.44 natural log |
| S43T | -1.49 natural log |
| A29D | -1.28 natural log |
| E32T | -1.26 natural log |
| E54L | -1.55 natural log |
| V56G | -1.52 natural log |
| A46Q | -1.53 natural log |
| V35W | -1.31 natural log |
| R30Q | -1.53 natural log |

For quick reference, copied from above (sample 2):
| Sequence | log2 enrichment |
| --- | --- |
| UCAAGUCCUGUGCUACACAUCGUAUGUACCGAAUCGGGUUGGGGUUGGUUGGGGAAAGUAUUAUGUUACGCCGUUCGGAUCUGCACUUCC | 0.272 |
| GCAGGAAGUACAAACAAAUGGAAAUGCUUCGGAUAGUGGCAGGGGUGGGGGUUGCUAAGGAAAGGGUGGGAUGGGAGUGGGUAAAGAGUU | 0.428 |
| CCACCAUGACCCCUGACGGUCUGGCUGUGACCCCAACGCCGGUGCCCGUGGUCGGGAGCCAGAUGACCAGACAAGCCCGGCGCCUCUACG | 0.851 |
| UGUGCUACACAUCGUAUGUACCGAAUCGGGGAAAAAAAGGGGAAAAAAAGGGGUUUUUGGGGAAAGUAUUAUGUUACGCCGUUCGGAUCU | -0.235 |
| GUCCUGUGCUACACAUCGUAUGUACCGAAUCGGGAAAAAAGGAAAAAAGGAAAAAAGGGAAAGUAUUAUGUUACGCCGUUCGGAUCUGCA | -0.237 |
